Published values gathered from unrelated publications.
Each numbered part is a random draw from the data of one study; scales do not carry over between parts. Changes are numbered by the printed parent chain.

Series 1 — target: MAFG, bZIP domain (human); method: DHFR protein complementation; matrix: yeast; baseline: wild-type JUN-FOS pair; direction: higher = stronger binding; measurement: binding fitness
Notes: single substitutions, most at no-binding floor
Starting sequence: JUN, bZIP domain (human); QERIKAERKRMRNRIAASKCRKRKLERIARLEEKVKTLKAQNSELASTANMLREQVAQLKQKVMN; partner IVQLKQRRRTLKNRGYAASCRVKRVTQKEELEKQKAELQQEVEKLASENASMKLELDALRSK
A46V: -1.49 natural log
E32P: -1.52 natural log
R30T: -1.5 natural log
E33F: -1.55 natural log
A40C: -1.27 natural log
Q55K: -1.58 natural log
E44L: -1.36 natural log
K34F: -1.45 natural log
L45S: -1.53 natural log
E33S: -1.52 natural log
E54R: -1.5 natural log
S47K: -1.13 natural log
E44K: -1.49 natural log

Series 2 — method: DHFR PCA, deep sequencing; matrix: yeast; with: (+)-ABA 0.39 µM; baseline: wild-type fitted maximum; direction: higher = stronger binding; measurement: relative binding score
Target: ABI1, truncated, D143A, DHFR fusion (Arabidopsis thaliana)
Notes: methotrexate growth selection, single substitutions
Starting sequence: PYL1, truncated, DHFR fusion (Arabidopsis thaliana); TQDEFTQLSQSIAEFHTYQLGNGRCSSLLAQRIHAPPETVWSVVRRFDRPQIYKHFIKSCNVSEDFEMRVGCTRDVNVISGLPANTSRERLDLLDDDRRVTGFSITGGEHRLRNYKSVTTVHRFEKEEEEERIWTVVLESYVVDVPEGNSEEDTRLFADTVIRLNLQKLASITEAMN
L138I: -16.6%
R74L: -6.92%
Q19D: 61%
E109F: -3.57%
E125D: 36.6%
N77K: 69.7%
T120W: -12.1%
I12V: 18.8%
P37S: 5.67%
E128H: 50.7%
K116Y: 5.57%
D92L: -2.48%
F56W: 11.3%
S63R: 36.6%
L20H: 54.8%
K58I: -8.08%

Series 3 — target: CCNE2, cyclin fold, Cln2 fusion (human); method: yeast growth competition, sequencing; matrix: yeast; notes: weak parent motif; baseline: not given; direction: higher = stronger binding; measurement: normalised enrichment score
Starting sequence: RP1L1 docking peptide (human); TLGLGPLSFTLED
D13A: -0.0345
E12A: -0.494
T10A: 0.112
G3A: -0.15
L11A: -0.165
G5A: -0.134
L7A: -0.0757

Series 4 — method: RNA Bind-n-Seq; molecule type: RNA; matrix: in vitro; tested at: 200 nM; notes: whole 134-nt RNA, ends assumed; with: 150 mM KCl; baseline: input library; direction: higher = stronger binding; measurement: log2 enrichment
Target: Ras GTPase-activating protein-binding protein 1, full length (G3BP1, Homo sapiens, UniProt Q13283)
Sequence of UniProt Q13283 (whole entry, looked up): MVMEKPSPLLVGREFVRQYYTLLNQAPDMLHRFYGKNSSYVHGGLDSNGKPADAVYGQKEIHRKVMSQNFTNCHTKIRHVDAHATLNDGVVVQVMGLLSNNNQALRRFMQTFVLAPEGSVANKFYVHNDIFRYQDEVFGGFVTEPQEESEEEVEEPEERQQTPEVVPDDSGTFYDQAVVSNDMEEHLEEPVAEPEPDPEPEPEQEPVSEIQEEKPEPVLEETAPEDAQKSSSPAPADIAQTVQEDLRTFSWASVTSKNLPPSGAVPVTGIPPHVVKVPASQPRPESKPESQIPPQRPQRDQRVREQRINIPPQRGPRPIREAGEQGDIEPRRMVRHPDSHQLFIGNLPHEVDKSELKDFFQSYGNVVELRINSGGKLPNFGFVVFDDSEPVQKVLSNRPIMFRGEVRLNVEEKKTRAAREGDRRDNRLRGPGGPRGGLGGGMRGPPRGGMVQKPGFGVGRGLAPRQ
Constant ends, left off below: GGGAGUUCUACAGUCCGACGAUC … UGGAAUUCUCGGGUGUCAAGG
AAGUCCUGUGCUACACAUCGUAUGUACCGAAUCGGGGUUUUGGUUUUGGGUUUUGGAAAGUAUUAUGUUACGCCGUUCGGAUCUGCACUU: -1.02
CUCAAGUCCUGUGCUACACAUCGUAUGUACCGAAUCGGUGGUUUGGAAAAAGGAAAGUAUUAUGUUACGCCGUUCGGAUCUGCACUUCCA: -0.246
CUCAAGUCCUGUGCUACACAUCGUAUGUACCGAAUCGGGCCGGGGCCGGCCGGAAAGUAUUAUGUUACGCCGUUCGGAUCUGCACUUCCA: -0.318
GCAGGAAGUAAAAACAAAUGGAAAUGCUUCGGAUAGUGGCAGGGGUGGGGGUUGCUAAGGAAAGGGUGGGAUGGGAGUGGGUAAAGUGUU: 0.807
CCUGUGCUACACAUCGUAUGUACCGAAUCGGGGAAAAAGGGGAAAGGGGAAAAAAAGGGGAAAGUAUUAUGUUACGCCGUUCGGAUCUGC: 0.253
GUCCUGUGCUACACAUCGUAUGUACCGAAUCGGGGAAAGGGGUGGGGAAAAAAAGGGGAAAGUAUUAUGUUACGCCGUUCGGAUCUGCAC: 0.355
UGGGAGGUGGAUUUUGUUUAUUUUUUUAGCUCAUUUCCAGGGGUGGGAAUUUUUUUUUAAUGUGUGUCAUGAAUAAAGUUGUUUUUGAAA: 0.276
CACAGACAACACGCACCCACACAGACACAGAGGGAAGGGCUUGGGAUGGGGACAGGGUGCACAGCAGGGCGGGGUAGGACCCCAGCCCCU: 2
AAGUCCUGUGCUACACAUCGUAUGUACCGAAUCGGGGCCCGGCCCGGGGCCCGGGGAAAGUAUUAUGUUACGCCGUUCGGAUCUGCACUU: -1.35

Series 5 — method: protein binding microarray; molecule type: double-stranded DNA, one strand shown; matrix: in vitro; tested at: not given; baseline: not given; direction: higher = stronger binding; measurement: E-score
Target: Histone acetyltransferase KAT6A, winged helix 1, GST fusion (KAT6A, Homo sapiens, UniProt Q92794, residues 1-85)
Notes: 8-mer, flanks averaged, mean of 2 arrays, mostly near background
Target sequence (chain): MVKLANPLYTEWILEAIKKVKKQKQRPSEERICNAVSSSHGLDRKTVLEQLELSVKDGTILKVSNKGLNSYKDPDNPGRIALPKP
AGTCTCCA: -0.276
AATGTAGA: -0.15
GCGCCCCA: 0.248
AGCGTTAA: 0.0882
GCATCGAC: -0.14
CGTGCCGC: 0.403
AAGTACCC: 0.0829
CAGAACGG: 0.0106
ACACAGAA: -0.203
CGAAAAGC: 0.0409
CCAAACTC: -0.108
ACGTACTG: -0.153
CCTTTGTA: -0.21
AGAGTCAG: -0.00687
AAAGCGCC: 0.317
CAAAACGG: 0.151
ACGCATAC: 0.239

Series 6 — method: RNA Bind-n-Seq; molecule type: RNA; matrix: in vitro; tested at: 365 nM; baseline: no-protein control; direction: higher = stronger binding; measurement: RBNS enrichment (R)
Target: RNA binding protein fox-1 homolog 2, RRM domain, GST-SBP tag (RBFOX2, Homo sapiens, UniProt O43251-10, residues 100-194)
Notes: natural RNA segment, single round, ends assumed
Constant ends, left off below: GGGAGUUCUACAGUCCGACGAUC … UGGAAUUCUCGGGUGCCAA
Construct (chain): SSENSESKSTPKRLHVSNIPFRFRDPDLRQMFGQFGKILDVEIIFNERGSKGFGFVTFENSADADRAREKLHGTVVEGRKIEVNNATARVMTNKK
CAGCCAUUGGUCACCUUGGGUGAUGCACCAGAUAGCAGGCAGAUGUUGGUUCAUUGGCCUUCGUCCUCUUUCCUCCUAAAAUAAUAUUGGCUUUACCAUCUUAACUCAGC: 0.627
UUAGACAAAUACAGCCCACUUUGGAUUUCAUCCUAGUGAACAGACUAAAACUUUGCAGUAAAAUACCUAUUUCUACAAAGCAAGGUUUGCCUGCCUCGGUUGGGGAAACC: 0.229
AUAUAUUUUUUAAAAAUAGGUUCAUUGAACAUAAAUCAGAUUGUUUGAGGUCAUUUUUCAGCAACAUUGGAUUCCUUUCUCCUCGGUGUGCUCAGCCUUCUCUGCAGCCU: 0.277
UAUUCAUGUCUCUACCCACUAUGCACAGAUUAAACUUCACCUACAAACUCCUUAAUAUGAUCUGUGGAGAAUGUACACAGUUUAAACACAUCAAUAAAUACUUUAACUUC: 2.02
GGAUGUUCGAUUCAUGUAAGUGACCUACCUGCUGAUGAUCCACAAAUAAUACUUUAGGGUGGCACUGACCGCUAUACCAGCAGCCCCAUGAGCACUCAAAGUGCCUUUCG: 0.316
UCUCACCCUAGCCAAAGGUCCUAAGAGGAGACCCGCUGUGAAGUCUGGCCUGCUCUUUGGUACCAGCUGUGACUUUUCAGUUUCUCCUGCUUUGAGGUUGUUCACGAAAC: 0.262
UCUUGCCUACUCCGGUGCCUCUACUUGACUGGCCAAUCAGCCCUUGAGGGGCAGGUUCCCCCAGGUGGUCCCCAGAUUUGCACUAAUGUUCCUCCCCUGGCCAGUUAGGG: 0.372
CCUUCUCACUGGUGUAUUUUGAAAACCACCACAGUCCGAUGUCCUGUGCCAUGUCUGUCAUUCCUGUUGAACAGACUCUUCCUGUCUGGUGACCACCUAUGCUUCAGUGC: 0.429
AAAAUUACAAAUUAAAUUGUUAAUUUUUAUCAAUGUGAUUGUAAUUAAAAAUAUUUUGAUUUAAAUAACAAAAAUAAUACCAGAUUUUAAGCCGUGGAAAAUGUUCUUGA: 1.71
UUUUGGUAAUAUGAAGCUUGAAUACUGGUAACAGUGAUGCAAUAUACGCAAGCUGCACAACCUGUAUAUUGUAUGCAUUGCUGCGUGGAGGCUGUUUAUUUCAACCUUUU: 0.745
ACUGAAGGACAAUUGACUUUUAUUUUUGUAUUUAAUUGACAUGAAUGUAAAGGGGACAGCUCAGGGUUGUUUUGGAGCCUGUUUGACUUUGUAAUCUCUGCCUGUGAUUU: 1.59
AGCACAUUUAAAAUGAGAAACUAAGACCAAUUUCUGUUUUUAAGAGGAAAAAGAAUGAUUGAUGUAUCCUAAGUAUUGUUAUUUGUUGUCUUUUUUUGCUGCCUUGCUUG: 4.22

For quick reference, copied from above (series 1):
R30T: -1.5 natural log
E33F: -1.55 natural log
A40C: -1.27 natural log
Q55K: -1.58 natural log
E44L: -1.36 natural log
K34F: -1.45 natural log
L45S: -1.53 natural log
